Assay results gathered from unrelated publications.
Each numbered part is a random draw from the data of one study; scales do not carry over between parts. Substitutions count along the parent as printed.

Block 1
Target: Histone acetyltransferase KAT6A, winged helix 2, GST fusion (KAT6A, Homo sapiens, UniProt Q92794, residues 85-181)
Technique: protein binding microarray
Molecule type: double-stranded DNA, one strand shown
Sample: in vitro
Tested at: not given
Notes: 8-mer, flanks averaged, mean of 2 arrays, mostly near background
Relative to: not given
Direction: higher = stronger binding
Target sequence (chain): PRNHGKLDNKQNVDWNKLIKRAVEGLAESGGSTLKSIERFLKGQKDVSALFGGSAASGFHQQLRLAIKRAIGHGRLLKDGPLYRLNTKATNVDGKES
`ACCCACCA` gave an E-score of -0.0601.
The E-score of `GGTACAAC` is reported as -0.092.
`CATTGAAG` gave an E-score of 0.0921.
With `ATAGTAAC` the E-score was -0.11.
With `ACCACTCT` the E-score was -0.164.
`CATACAGC` gave an E-score of -0.189.
`ATCCGCAG` gave an E-score of 0.204.
`CTGTATCC` gave an E-score of -0.0737.
For `AGTGGAGG`, the E-score was 0.0109.
The E-score of `AGAGTGAG` is reported as -0.0428.

Block 2
Target: CCNF, cyclin fold, Cln2 fusion (human)
Technique: yeast growth competition, sequencing
Sample: yeast
Notes: strong parent motif
Relative to: not given
Direction: higher = stronger binding
Parent: E2F1 docking peptide (human); PPVKRRLDFETDH
For `PPVKRRLDFSTDH [E10S]`, “normalised enrichment score” read 7.7.
`PRVKRRLDFETDH [P2R]`: “normalised enrichment score” 8.12.
`PPVKRRLDFYTDH [E10Y]` — result for “normalised enrichment score”: 8.19.
For `PPVKRRLDFETIH [D12I]`, “normalised enrichment score” read 8.1.
`PPVKRRLDFEFDH [T11F]` — result for “normalised enrichment score”: 7.54.
Under “normalised enrichment score”, `PPVKRRHDFETDH [L7H]` is recorded as 0.0381.
`PPVERRLDFETDH [K4E]`: “normalised enrichment score” 5.46.
`PPVKRRLDFETHH [D12H]`: “normalised enrichment score” 7.81.

Block 3
Target: Prothrombin, mature alpha-thrombin (F2, Homo sapiens, UniProt P00734)
Technique: aptamer microarray, sandwich
Molecule type: DNA with 2'F-ANA
Sample: in vitro
Tested at: 200 nM
Notes: whole 15-mer aptamer, many near background
Added: Cy3 exosite-II aptamer, 400 nM
Direction: higher = stronger binding
Sequence: GGTTGGTGTGGTTGG
Under “mean fluorescence intensity”, `2'F-ANA at 2 3 4 5 7 10 11 15` is recorded as 57.3 a.u.
For `2'F-ANA at 2 3 4 5 6 7 8 12 14`, “mean fluorescence intensity” read 169 a.u.
Under “mean fluorescence intensity”, `2'F-ANA at 3 5 6 8 15` is recorded as 166 a.u.
`2'F-ANA at 1 2 5 8 10 11 14`: “mean fluorescence intensity” 43.5 a.u.
`2'F-ANA at 2 4 12 14` — result for “mean fluorescence intensity”: 198 a.u.
`2'F-ANA at 4 5 6 8 13 14` — result for “mean fluorescence intensity”: 43.8 a.u.
`2'F-ANA at 1 3 7 9 11 13`: “mean fluorescence intensity” 238 a.u.
`2'F-ANA at 6 7 9 10 12 13 15` — result for “mean fluorescence intensity”: 170 a.u.
Under “mean fluorescence intensity”, `2'F-ANA at 1 3 4 7 8 12 13 15` is recorded as 419 a.u.
`2'F-ANA at 3 4 6 7 8 10 14` — result for “mean fluorescence intensity”: 195 a.u.
Under “mean fluorescence intensity”, `2'F-ANA at 1 4 5 6 7 10 13 15` is recorded as 69.1 a.u.
For `2'F-ANA at 2 5 10 13`, “mean fluorescence intensity” read 41.5 a.u.
`2'F-ANA at 3 4 5 6 8 9 10 13 14`: “mean fluorescence intensity” 47.3 a.u.
`2'F-ANA at 1 4 5 6 8 10 11 12 14 15`: “mean fluorescence intensity” 50.4 a.u.
Under “mean fluorescence intensity”, `2'F-ANA at 2 3 4 5 7 8 13 14 15` is recorded as 114 a.u.

Further values, each from its own experiment
For `PhoQ, residues 284 288 289 292 302 303 DDMDFR`, the fold induction was 1.35 (PhoP, residues 12 14 15 18 19 GQALL (Escherichia coli, UniProt P23836); Sort-seq, refers to: YFP reporter; E. coli; PhoQ-PhoP variant library, added: 10 µM Mg2+; relative to: high Mg2+ state, higher = stronger signaling).

Excerpt of the above (block 3):
Under “mean fluorescence intensity”, `2'F-ANA at 3 5 6 8 15` is recorded as 166 a.u.
`2'F-ANA at 3 4 5 6 8 9 10 13 14`: “mean fluorescence intensity” 47.3 a.u.
`2'F-ANA at 3 4 6 7 8 10 14` — result for “mean fluorescence intensity”: 195 a.u.
`2'F-ANA at 1 4 5 6 8 10 11 12 14 15`: “mean fluorescence intensity” 50.4 a.u.
